Measured values from different studies.
Values joined by “and” are separate records of one study, mostly repeats; a detail may differ. ± marks the error that the study gave.
UniProt P21554, sequence (whole entry, unmodified, looked up): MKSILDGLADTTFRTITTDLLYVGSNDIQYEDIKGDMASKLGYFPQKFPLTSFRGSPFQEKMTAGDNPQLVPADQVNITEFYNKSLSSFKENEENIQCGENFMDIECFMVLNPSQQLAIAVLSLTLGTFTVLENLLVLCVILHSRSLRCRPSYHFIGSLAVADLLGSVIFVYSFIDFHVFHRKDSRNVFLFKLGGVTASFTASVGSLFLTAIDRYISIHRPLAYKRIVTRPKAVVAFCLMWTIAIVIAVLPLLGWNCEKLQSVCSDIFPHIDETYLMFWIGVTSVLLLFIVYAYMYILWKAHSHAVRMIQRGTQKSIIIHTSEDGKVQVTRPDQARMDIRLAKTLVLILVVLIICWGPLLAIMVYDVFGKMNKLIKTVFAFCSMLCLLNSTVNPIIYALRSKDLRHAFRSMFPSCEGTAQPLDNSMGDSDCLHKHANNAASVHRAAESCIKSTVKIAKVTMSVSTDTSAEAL
UniProt P48736, sequence (whole entry, looked up): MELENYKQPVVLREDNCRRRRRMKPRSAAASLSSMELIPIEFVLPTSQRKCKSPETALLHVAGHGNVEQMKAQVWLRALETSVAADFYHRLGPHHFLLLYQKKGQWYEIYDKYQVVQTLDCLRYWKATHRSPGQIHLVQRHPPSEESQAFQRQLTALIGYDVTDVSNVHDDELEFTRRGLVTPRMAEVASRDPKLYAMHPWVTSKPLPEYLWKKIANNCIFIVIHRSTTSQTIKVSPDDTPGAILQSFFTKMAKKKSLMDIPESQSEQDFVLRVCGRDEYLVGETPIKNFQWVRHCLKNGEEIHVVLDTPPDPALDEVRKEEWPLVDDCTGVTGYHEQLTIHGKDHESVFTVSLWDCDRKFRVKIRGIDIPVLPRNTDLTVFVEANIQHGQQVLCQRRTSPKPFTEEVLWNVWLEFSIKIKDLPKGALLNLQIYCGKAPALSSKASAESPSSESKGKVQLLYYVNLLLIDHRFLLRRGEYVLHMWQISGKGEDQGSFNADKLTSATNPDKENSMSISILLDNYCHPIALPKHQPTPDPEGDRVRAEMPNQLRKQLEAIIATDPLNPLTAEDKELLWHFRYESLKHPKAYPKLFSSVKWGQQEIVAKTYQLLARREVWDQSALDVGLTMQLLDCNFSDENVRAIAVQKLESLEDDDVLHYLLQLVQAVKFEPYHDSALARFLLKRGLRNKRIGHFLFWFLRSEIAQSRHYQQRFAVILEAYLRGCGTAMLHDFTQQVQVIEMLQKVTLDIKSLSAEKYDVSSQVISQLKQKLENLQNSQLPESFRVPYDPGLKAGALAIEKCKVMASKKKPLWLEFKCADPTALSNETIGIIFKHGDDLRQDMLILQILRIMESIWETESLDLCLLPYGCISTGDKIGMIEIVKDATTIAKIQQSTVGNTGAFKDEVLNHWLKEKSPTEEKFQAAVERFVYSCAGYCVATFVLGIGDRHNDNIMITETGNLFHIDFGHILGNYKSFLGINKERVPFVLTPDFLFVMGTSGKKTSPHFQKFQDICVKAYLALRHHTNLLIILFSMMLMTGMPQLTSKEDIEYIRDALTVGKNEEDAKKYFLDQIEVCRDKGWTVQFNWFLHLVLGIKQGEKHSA
UniProt Q9UNQ0, sequence (whole entry, looked up): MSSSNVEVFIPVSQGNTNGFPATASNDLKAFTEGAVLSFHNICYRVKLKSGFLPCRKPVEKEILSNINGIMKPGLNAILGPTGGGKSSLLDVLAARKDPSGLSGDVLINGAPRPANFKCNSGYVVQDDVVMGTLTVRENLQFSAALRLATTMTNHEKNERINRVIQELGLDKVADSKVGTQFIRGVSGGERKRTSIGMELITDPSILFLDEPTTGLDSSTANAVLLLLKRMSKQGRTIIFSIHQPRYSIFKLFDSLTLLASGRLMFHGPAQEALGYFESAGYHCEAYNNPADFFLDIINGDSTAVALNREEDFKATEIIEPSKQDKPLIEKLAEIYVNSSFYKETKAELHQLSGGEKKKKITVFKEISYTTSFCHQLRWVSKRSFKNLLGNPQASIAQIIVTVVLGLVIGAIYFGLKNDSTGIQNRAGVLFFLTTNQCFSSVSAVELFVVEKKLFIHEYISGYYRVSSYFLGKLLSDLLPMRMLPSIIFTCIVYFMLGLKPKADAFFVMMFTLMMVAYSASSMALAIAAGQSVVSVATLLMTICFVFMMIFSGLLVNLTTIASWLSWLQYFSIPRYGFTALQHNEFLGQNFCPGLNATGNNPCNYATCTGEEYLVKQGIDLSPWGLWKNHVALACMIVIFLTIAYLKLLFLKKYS
UniProt P08922, sequence (whole entry, looked up): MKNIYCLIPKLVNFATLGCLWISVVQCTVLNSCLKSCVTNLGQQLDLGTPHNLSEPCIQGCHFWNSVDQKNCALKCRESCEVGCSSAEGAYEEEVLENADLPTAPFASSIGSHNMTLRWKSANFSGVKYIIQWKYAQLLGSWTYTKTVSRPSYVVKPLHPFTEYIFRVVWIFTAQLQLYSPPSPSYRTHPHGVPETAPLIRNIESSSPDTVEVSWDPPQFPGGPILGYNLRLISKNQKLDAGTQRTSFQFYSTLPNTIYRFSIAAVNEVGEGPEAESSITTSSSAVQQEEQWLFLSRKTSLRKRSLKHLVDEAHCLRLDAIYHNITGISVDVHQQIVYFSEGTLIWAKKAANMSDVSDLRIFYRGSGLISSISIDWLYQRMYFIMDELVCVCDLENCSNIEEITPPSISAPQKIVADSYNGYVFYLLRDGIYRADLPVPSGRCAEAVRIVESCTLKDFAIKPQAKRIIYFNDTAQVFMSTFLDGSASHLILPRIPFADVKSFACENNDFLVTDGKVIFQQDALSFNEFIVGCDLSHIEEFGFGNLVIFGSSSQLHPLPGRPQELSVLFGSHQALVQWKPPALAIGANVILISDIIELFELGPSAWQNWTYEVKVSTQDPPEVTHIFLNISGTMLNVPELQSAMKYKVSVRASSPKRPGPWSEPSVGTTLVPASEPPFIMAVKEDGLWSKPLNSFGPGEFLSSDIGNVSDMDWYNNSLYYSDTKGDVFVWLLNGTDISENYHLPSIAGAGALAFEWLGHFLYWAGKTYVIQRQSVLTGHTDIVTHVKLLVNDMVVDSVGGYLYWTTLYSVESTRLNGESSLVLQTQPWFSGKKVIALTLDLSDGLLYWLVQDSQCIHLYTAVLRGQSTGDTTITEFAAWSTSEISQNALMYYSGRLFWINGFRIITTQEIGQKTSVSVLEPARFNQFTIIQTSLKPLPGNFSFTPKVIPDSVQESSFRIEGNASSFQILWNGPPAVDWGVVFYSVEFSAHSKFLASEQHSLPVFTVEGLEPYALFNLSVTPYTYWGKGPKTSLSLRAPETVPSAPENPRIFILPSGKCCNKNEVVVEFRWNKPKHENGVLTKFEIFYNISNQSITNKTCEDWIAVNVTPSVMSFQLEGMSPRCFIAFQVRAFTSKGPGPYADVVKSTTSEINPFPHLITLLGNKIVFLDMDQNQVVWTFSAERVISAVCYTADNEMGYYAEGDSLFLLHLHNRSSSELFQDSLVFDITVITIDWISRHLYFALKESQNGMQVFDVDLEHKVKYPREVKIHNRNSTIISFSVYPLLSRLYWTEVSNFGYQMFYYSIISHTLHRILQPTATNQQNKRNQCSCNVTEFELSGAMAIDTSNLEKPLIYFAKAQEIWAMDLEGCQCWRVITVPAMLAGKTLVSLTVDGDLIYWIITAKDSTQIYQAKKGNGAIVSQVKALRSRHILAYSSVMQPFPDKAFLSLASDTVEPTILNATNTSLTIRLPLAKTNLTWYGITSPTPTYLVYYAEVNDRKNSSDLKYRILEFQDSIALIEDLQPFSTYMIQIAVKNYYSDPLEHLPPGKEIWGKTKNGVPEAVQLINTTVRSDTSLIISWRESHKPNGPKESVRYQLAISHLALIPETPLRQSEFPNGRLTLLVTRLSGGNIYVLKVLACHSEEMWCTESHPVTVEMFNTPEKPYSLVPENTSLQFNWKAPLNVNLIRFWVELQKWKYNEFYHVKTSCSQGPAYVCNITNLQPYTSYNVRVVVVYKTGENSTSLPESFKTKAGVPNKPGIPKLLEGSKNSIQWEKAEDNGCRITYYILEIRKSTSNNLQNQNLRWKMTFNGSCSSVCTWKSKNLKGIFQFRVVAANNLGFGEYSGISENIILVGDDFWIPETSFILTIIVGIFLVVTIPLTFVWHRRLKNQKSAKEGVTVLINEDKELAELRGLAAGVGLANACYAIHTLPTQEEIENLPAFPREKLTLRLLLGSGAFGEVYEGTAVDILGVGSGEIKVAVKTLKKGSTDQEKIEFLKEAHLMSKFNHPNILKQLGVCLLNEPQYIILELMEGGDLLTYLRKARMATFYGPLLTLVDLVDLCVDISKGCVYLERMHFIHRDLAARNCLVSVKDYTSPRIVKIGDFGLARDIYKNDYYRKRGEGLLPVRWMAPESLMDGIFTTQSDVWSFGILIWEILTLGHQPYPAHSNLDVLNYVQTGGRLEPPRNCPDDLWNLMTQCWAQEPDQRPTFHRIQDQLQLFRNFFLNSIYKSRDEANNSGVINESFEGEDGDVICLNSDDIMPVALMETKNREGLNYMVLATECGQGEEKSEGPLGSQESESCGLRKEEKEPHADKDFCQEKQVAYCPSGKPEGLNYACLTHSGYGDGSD

| SMILES | tested on | test | system | conditions | how to read | quantity | value |
| --- | --- | --- | --- | --- | --- | --- | --- |
| Cc1ccc(OCCN(C)C)cc1C(=O)N[C@H](C)c1cc(-c2ccc(CNC3CCCC3)s2)nc2ccccc12 | Vero E6 | – | – | 250 µM | – | viability | 7.31% and 1.83% |
| NC(=O)N/N=C/c1ccc(OCc2cccc(F)c2)cc1 | IMR-32 | MTT | – | 200 µg/mL, 24 h | reference: untreated control | viability | 63.5% |
| CNC(=O)C[C@H](Cc1ccc(F)cc1)NC(=O)[C@@H](Cc1ccc(Cl)cc1Cl)NC(=O)[C@H](N)Cc1ccccc1C#N | Huh-7-ACE2 | CellTiter-Glo | – | 0.00153 µM, 48 h, unit not given | reference: DMSO | viability | 1.02 and 0.996 and 1.03 |
| Cc1ccc(N2CCN(C)C3(CC3)C2)cc1C(=O)N[C@H](C)c1cc(-c2cnn(C)c2)nc2ccccc12 | Vero E6 | – | – | 7.812 µM | – | viability | 111% and 108% and 109% |
| O=C1NC(=O)c2c1c1cc(F)c[n+]3c1c1c2c2cc(O)ccc2[n]1[Ru-4]312([N]=C=S)[S+]3CC[S+]1CC[S+]2CC3 (stereo not drawn) | RET (Homo sapiens, UniProt P07949, V804M) | enzyme activity | – | 100 nM, human enzyme, added: 10 µM ATP | reference: untreated | remaining activity | 5% |
| CCn1ccc(-c2cc([C@@H](C)NC(=O)c3cc(OC[C@@H]4CCN4C)ccc3C)c3ccccc3n2)n1 | African green monkey cells | – | – | 15.62 µM | – | viability | 98.2% |
| CC[C@H](C)[C@H](NC(=O)[C@H](CO)NC(=O)[C@H](Cc1ccc(O)cc1)NC(=O)[C@H](Cc1ccc(O)cc1)NC(=O)[C@H](CC(N)=O)NC(=O)CNC(=O)[C@H](CO)NC(=O)[C@H](Cc1ccc(O)cc1)NC(=O)[C@H](CO)NC(=O)[C@H](CO)NC(=O)[C@H](CC(N)=O)NC(=O)COCCOCCNC(=O)CN1CCN(CC(=O)O)CCN(CC(=O)O)CCN(CC(=O)O)CC1)C(=O)N[C@@H](CC(C)C)C(N)=O [copper-64 labelled] | – | dynamic PET | tamoxifen-induced PDAC mouse model, pancreas | 1.4 min, CLDN4-expressing tumours | – | maximum pancreas uptake | 24.6 %IA/cc |
| N=C(N)NCCC[C@@H]1NC(=O)[C@H](CCCCNC(=O)CCC(NC(=S)Nc2ccc(CC3CN(CC(=O)O)CCN(CC(=O)O)CCN(CC(=O)O)CCN3CC(=O)O)cc2)C(=O)NCCCC[C@@H]2NC(=O)[C@@H](Cc3ccc(O)cc3)NC(=O)[C@H](CC(=O)O)NC(=O)CNC(=O)[C@H](CCCNC(=N)N)NC2=O)NC(=O)[C@@H](Cc2ccc(O)cc2)NC(=O)[C@H](CC(=O)O)NC(=O)CNC1=O (stereo partly drawn) [scandium-44 labelled] | – | ex vivo γ-counting | female athymic nude mice, U-87 MG xenograft, pancreas | intravenous, 4 h | – | tissue uptake | 0.15 ± 0.06 %ID/g |
| CNC(=O)C[C@H](Cc1ccncc1)NC(=O)[C@@H](Cc1cccc(Br)c1)NC(=O)[C@@H](N)Cc1cccc(F)c1 | Huh-7-ACE2 | CellTiter-Glo | – | 0.195 µM, 48 h, unit not given | reference: DMSO | viability | 1.13 and 0.964 and 1.19 |
| CCCCCCCCCCCCCCCC(=O)OCC(CSC[C@H](N)C(=O)N[C@@H](CO)C(=O)N[C@@H](CCCCN)C(=O)N[C@@H](CCCCN)C(=O)N[C@@H](CCCCN)C(=O)N[C@@H](CCCCN)C(=O)O)OC(=O)CCCCCCCCCCCCCCC (stereo partly drawn) | HFF-1 | – | – | 0.1 µg/mL, 48 h | – | viability | 90% |
| CC(C)[C@H]1NC(=O)C[C@H]2/C=C/CCSSC[C@@H](NC1=O)C(=O)N[C@H](Cc1cccc3ccccc13)C(=O)NCC(=O)O2 | BRAF (Homo sapiens, UniProt P15056) | – | – | 10 µM | – | inhibition | 5.3% |
| CN(C)[C@H]1C[C@@]23CC[C@@]4(O2)C(=CC[C@]2(C)[C@@H](c5ccc6ccncc6c5)CC[C@H]24)C=C3[C@@H](O)[C@@H]1O | PIK3CG (Homo sapiens, UniProt P48736) | ATP probe labelling, inhibitor, KiNativ profiling | – | 0.1 µM | – | inhibition | -12.4% |
| Cc1ccc(OCCN(C)C)cc1C(=O)N[C@H](C)c1cc(-c2ccn(C)n2)nc2ccccc12 | Vero E6 | – | – | 250 µM | – | viability | 0.225% and 0.449% and 0% |
| Cc1nc2cccc(OCC(C)(C)C(=O)NC(C)C)c2c(N)c1C(=O)[O-].[Na+] | Escherichia coli | reverse mutation, preincubation | WP2 uvrA | 0.32 mg/plate, with rat liver S9 | – | revertant colonies | 39 ± 2 colonies/plate |
| O=C1NC2(CC2)COc2ncc(F)cc2[C@H]2COCCN2c2ccn3ncc1c3n2 | – | – | Sprague-Dawley rat, female, thymus | oral, 5 mg/kg/day, 4 weeks, end of treatment | – | organ-to-brain weight ratio | 31.1 ± 8.4% |
| CC(=O)NCCCC[C@@H]1NC(=O)[C@H](Cc2c[nH]c3c(C)cccc23)NC(=O)[C@H]([C@@H](C)O)NC(=O)[C@H](CC(N)=O)NC(=O)[C@@H](NC(C)=O)C(C)(C)SSC(C)(C)[C@@H](C(=O)N[C@@H](Cc2ccc(OCCN)cc2)C(=O)N[C@@H](Cc2ccc3ccccc3c2)C(=O)NC2(C(=O)N[C@@H](CCC(=O)O)C(=O)N[C@@H](CC(N)=O)C(=O)N[C@@H](Cc3cccnc3)C(=O)N(C)CC(N)=O)CCOCC2)NC1=O | ABCG2 (Homo sapiens, UniProt Q9UNQ0) | transport, inhibitor | LLC-PK1 expressing ABCG2 | 0.637 µM, 90 min, added: [3H]prazosin | – | efflux ratio | 9.82 |
| NC(=S)N/N=C/c1ccc(OCc2cccc(F)c2)cc1 | IMR-32 | MTT | – | 300 µg/mL, 24 h | reference: untreated control | viability | 47.2% |
| CS(C)(=O)=Nc1ccc(-c2ccc(-c3nc4cc(O[C@@H]5CO[C@H]6[C@@H]5OC[C@H]6O)[nH]c4cc3F)cc2)cc1 | ROS1 (Homo sapiens, UniProt P08922) | enzyme activity, inhibitor | – | 10 µM | – | inhibition | 23% |

| SMILES | tested on | test | system | conditions | how to read | quantity | value |
| --- | --- | --- | --- | --- | --- | --- | --- |
| Cc1ccc2c(C(C[N+](=O)[O-])c3cccs3)c(-c3ccccc3)[nH]c2c1 (stereo not drawn) | CNR1 (Homo sapiens, UniProt P21554, Y397A) | G protein activation, agonist, BRET | – | – | – | EC50 | 130 nM |
| CCCCCCCCCCCCCCCC(=O)N[C@@H](CSCC(COC(=O)CCCCCCCCCCCCCCC)OC(=O)CCCCCCCCCCCCCCC)C(=O)N[C@@H](CO)C(=O)N[C@@H](CCCCN)C(=O)N[C@@H](CCCCN)C(=O)N[C@@H](CCCCN)C(=O)N[C@@H](CCCCN)C(=O)O (stereo partly drawn) | HFF-1 | – | – | 0.01 µg/mL, 48 h | – | viability | 94.5% |
| CNC(=O)C[C@H](Cc1ccncc1)NC(=O)[C@@H](Cc1cccc(Br)c1)NC(=O)[C@@H](N)Cc1ccsc1 | Huh-7-ACE2 | CellTiter-Glo | – | 0.0061 µM, 48 h, unit not given | reference: DMSO | viability | 1.05 and 1.04 |
| Cc1ccc(N2CC3CCC(C2)N3C)cc1C(=O)N[C@H](C)c1cc(-c2cnn(C)c2)nc2ccccc12 | Vero E6 | – | – | 250 µM | – | viability | 0.958% and 0.766% and 1.53% |
| CNC(=O)C[C@H](Cc1ccccc1)NC(=O)[C@@H](Cc1ccc(Cl)cc1Cl)NC(=O)[C@H](N)Cc1ccccc1C#N | Huh-7-ACE2 | CellTiter-Glo | – | 0.000191 µM, 48 h, unit not given | reference: DMSO | viability | 1.1 and 1.04 and 0.971 |
| CCCCCCCCCCCCCCCC(=O)OCC(CSC[C@H](N)C(=O)NCC(=O)N[C@@H](CC(=O)O)C(=O)N1CCC[C@H]1C(=O)N[C@@H](CCCCN)C(=O)N[C@@H](Cc1c[nH]cn1)C(=O)N1CCC[C@H]1C(=O)N[C@@H](CCCCN)C(=O)N[C@@H](CO)C(=O)N[C@@H](Cc1ccccc1)C(=O)O)OC(=O)CCCCCCCCCCCCCCC (stereo partly drawn) | HFF-1 | – | – | 0.1 µg/mL, 48 h | – | viability | 86.4% |
| CNC(=O)CC[C@H](Cc1ccccc1)NC(=O)[C@@H](Cc1ccc(Cl)cc1Cl)NC(=O)[C@H](N)Cc1ccccc1[N+](=O)[O-] | Huh-7-ACE2 | CellTiter-Glo | – | 0.0488 µM, 48 h, unit not given | reference: DMSO | viability | 0.739 and 1 and 0.886 |
| CCn1ccc(-c2cc([C@@H](C)NC(=O)c3cc(OC[C@H]4CCCN4C)ccc3C)c3ccccc3n2)n1 | Vero E6 | – | – | 250 µM | – | viability | 0.312% and 0.938% and 0.156% |
| CC(C)(C)C(=O)OCOP(=O)(OCOC(=O)C(C)(C)C)C1CCCN(O)C1=O (stereo not drawn) | COLO 205 | – | – | – | – | GI50 | 600 nM |
| NC(=S)N/N=C/c1ccc(OCc2ccccc2)cc1 | IMR-32 | MTT | – | 500 µg/mL, 24 h | reference: untreated control | viability | 24% |
| Cc1ccc(O[C@H]2CCN(C)C2)cc1C(=O)N[C@H](C)c1cc(-c2cnn(C)c2)nc2ccccc12 | Vero E6 | – | – | 31.25 µM | – | viability | 71.1% and 80.4% and 75.7% |
| N=C(N)NCCC[C@H](N)C(=O)N[C@@H](Cc1c[nH]c2ccccc12)C(=O)N[C@@H](Cc1ccc(O)cc1)C(=O)N[C@@H](CC(=O)O)C(=O)O | PC-9, A549, HCC44, Lewis lung carcinoma | CCK-8 | – | concentration not given, 48 h | – | viability | not toxic |
| CNC(=S)N/N=C/c1ccc(OCc2ccccc2)cc1 | IMR-32 | MTT | – | 100 µg/mL, 24 h | reference: untreated control | viability | 85.3% |
| CCn1ccc(-c2cc(C(C)NC(=O)c3cc(N4CC5CC4CN5C)ccc3C)c3ccccc3n2)n1 (stereo not drawn) | Vero E6 | – | – | 7.812 µM | – | viability | 103% and 97.1% and 99.2% |
| CNC(=O)C[C@H](Cc1ccc(F)cc1)NC(=O)[C@@H](Cc1ccc(Cl)cc1Cl)NC(=O)[C@H](N)Cc1ccccc1[N+](=O)[O-] | Huh-7-ACE2 | CellTiter-Glo | – | 0.000191 µM, 48 h, unit not given | reference: DMSO | viability | 0.981 and 1.05 and 1 |
| COc1ccccc1-c1n[nH]c2nc(NC3CCN(C(=O)Cc4ccc(F)cc4F)CC3)ncc12 | – | bead binding, competition bead pull-down, item: LINJ.26.1220 | Leishmania donovani axenic amastigote extract | 10 µM | reference: vehicle | relative abundance | 0.91 |
| CNC(=O)CC1CN(C(=O)c2ccc(C(F)(F)F)cn2)CCN1C(=O)c1cccnn1 (stereo not drawn) | Huh-7-ACE2 | CellTiter-Glo | – | 0.0977 µM, 48 h, unit not given | reference: DMSO | viability | 1.1 and 0.925 and 0.937 |
| O=c1n(CCNCCOS(=O)(=O)c2ccccc2)c(=O)n(S(=O)(=O)c2ccccc2)c(=O)n1S(=O)(=O)c1ccccc1 | HUVEC | cell growth or viability, MTT | – | 12.5 µg/mL, 24 h | – | viability | 91.2% |

For quick reference, copied from above:
| SMILES | tested on | test | system | conditions | how to read | quantity | value |
| --- | --- | --- | --- | --- | --- | --- | --- |
| CCCCCCCCCCCCCCCC(=O)OCC(CSC[C@H](N)C(=O)NCC(=O)N[C@@H](CC(=O)O)C(=O)N1CCC[C@H]1C(=O)N[C@@H](CCCCN)C(=O)N[C@@H](Cc1c[nH]cn1)C(=O)N1CCC[C@H]1C(=O)N[C@@H](CCCCN)C(=O)N[C@@H](CO)C(=O)N[C@@H](Cc1ccccc1)C(=O)O)OC(=O)CCCCCCCCCCCCCCC (stereo partly drawn) | HFF-1 | – | – | 0.1 µg/mL, 48 h | – | viability | 86.4% |
| CNC(=O)CC[C@H](Cc1ccccc1)NC(=O)[C@@H](Cc1ccc(Cl)cc1Cl)NC(=O)[C@H](N)Cc1ccccc1[N+](=O)[O-] | Huh-7-ACE2 | CellTiter-Glo | – | 0.0488 µM, 48 h, unit not given | reference: DMSO | viability | 0.739 and 1 and 0.886 |
| CCn1ccc(-c2cc([C@@H](C)NC(=O)c3cc(OC[C@H]4CCCN4C)ccc3C)c3ccccc3n2)n1 | Vero E6 | – | – | 250 µM | – | viability | 0.312% and 0.938% and 0.156% |
| CC(C)(C)C(=O)OCOP(=O)(OCOC(=O)C(C)(C)C)C1CCCN(O)C1=O (stereo not drawn) | COLO 205 | – | – | – | – | GI50 | 600 nM |
